Measurements collected from several papers.
Compare with care: the assays were run in different laboratories. Values joined by “and” are separate records of one study, mostly repeats; a detail may differ. ± gives the spread as reported.

Molecule | target or system | test | system | conditions | scale | measurement | value
CCCC[C@@H]1NC(=O)[C@@H](CC(C)C)NC(=O)[C@H](CCCCNC(=O)CN2CCN(CC(=O)O)CCN(CC(=O)O)CC2)NC(=O)[C@@H](CO)NC(=O)[C@H](Cc2c[nH]cn2)NC(=O)[C@@H](Cc2c[nH]c3ccccc23)NC1=O [copper-64 labelled] |  |  | Balb/c mice, blood | intravenous, dose not given |  | tissue uptake | 0.29 ± 0.05 %ID/g
Nc1ncc(-c2cc(-c3cnn(CC(F)(F)F)c3)ncc2F)nc1C(=O)NC1CNCC(F)C1 (stereo not drawn) | SIK | KINOMEscan competition binding |  | 1 µM | reference: DMSO control | remaining binding | 92%
CCCC[C@H](NC(=O)CCCCCCCNC(=O)CN1CCN(CC(=O)O)CCN(CC(=O)O)CC1)C(=O)N[C@H]1CC(=O)NCCCC[C@@H](C(N)=O)NC(=O)[C@H](Cc2c[nH]c3ccccc23)NC(=O)[C@H](CCCNC(=N)N)NC(=O)[C@@H](Cc2ccccc2)NC(=O)[C@H](Cc2c[nH]cn2)NC1=O [technetium-99m labelled] |  |  | C57 mouse, muscle | intravenous, 0.037 MBq, 4 h |  | tissue uptake | 0.02 ± 0.03 %ID/g
human nucleophosmin |  | far-UV CD, CDSSTR | Tris buffer, NaCl | pH 7.5, room temperature |  | unstructured content | 47%
C=CC(=O)Nc1cccc(Cn2ncc3cnc(Nc4cnn(CCOC)c4)nc32)c1 | ROCK1 human | binding, KINOMEscan |  | 100 nM | lower = stronger binding | percent of control | 74%
COC1CN([C@H]2CC[C@H]([C@@]3(C)Oc4c(Cl)cc(C(=O)NCc5c(SC)cc(C)[nH]c5=O)c(C)c4O3)CC2)C1 |  | RNA-seq, measured: BEND7 mouse homolog | mouse, HT-1376 xenograft, whole blood | dose not given | reference: vehicle | log2 fold change | 5.54
N=C(N)NCCC[C@@H]1NC(=O)[C@H](CCCCNC(=S)Nc2ccc(CC3CN(CC(=O)O)CCN(CC(=O)O)CCN(CC(=O)O)CCN3CC(=O)O)cc2)NC(=O)[C@@H](Cc2ccc(O)cc2)NC(=O)[C@H](CC(=O)O)NC(=O)CNC1=O (stereo partly drawn) [actinium-225 labelled] |  |  | mice with U-87 MG tumour, kidney |  |  | effective half-life | 19.9 h
CC(C)C[C@H](NC(=O)[C@H](Cc1ccc(O)cc1)NC(=O)[C@@H](CCCNC(=N)N)NC(=O)[C@@H](CO)NC(=O)[C@H](Cc1ccccc1)NC(=O)[C@H](CC1CCCCC1)NC(=O)[C@H](CC(=O)O)NC(=O)CN1CCN(CC(=O)O)CCN(CC(=O)O)CCN(CC(=O)O)CC1)C(=O)N[C@@H](Cc1c[nH]c2ccccc12)C(=O)N[C@@H](CO)C(=O)O [copper-64 labelled] |  |  | human, spleen | concentration not given, 1 h |  | activity concentration | 2490 Bq/mL and 3790 Bq/mL and 2680 Bq/mL and 2980 Bq/mL and 3360 Bq/mL and 2530 Bq/mL
C=C1CC[C@H](OCCCNC(=O)CCOCCOCCOCCOCCOCCOCCOCCOCCOCCOCCOCCOCCOCCOCCOCCOCCOCCOCCOCCOCCOCCOCCOCCOCCOCCOCCOCCOCCOCCOCCOCCOCCOCCOCCOCCOCCNC(=O)CCN2C(=O)CC(SC[C@H](NC(=O)[C@H](Cc3ccccc3)NC(=O)[C@H](CC(N)=O)NC(=O)[C@H](Cc3c[nH]cn3)NC(=O)[C@@H](NC(=O)[C@H](CC(=O)O)NC(=O)[C@H](CCC(N)=O)NC(=O)[C@H](CC(C)C)NC(=O)[C@H](CCCCN)NC(=O)[C@H](CCCCN)NC(=O)[C@H](CCCNC(=N)N)NC(=O)[C@H](CC(C)C)NC(=O)[C@H](Cc3c[nH]c4ccccc34)NC(=O)[C@H](CCC(=O)O)NC(=O)[C@@H](NC(=O)[C@H](CCCNC(=N)N)NC(=O)[C@H](CCC(=O)O)NC(=O)[C@H](CCSC)NC(=O)[C@H](CO)NC(=O)[C@H](CC(N)=O)NC(=O)[C@H](CC(C)C)NC(=O)[C@H](Cc3c[nH]cn3)NC(=O)[C@H](CCCCN)NC(=O)CNC(=O)[C@H](CC(C)C)NC(=O)[C@H](CC(N)=O)NC(=O)[C@H](Cc3c[nH]cn3)NC(=O)[C@H](CCSC)NC(=O)[C@H](CC(C)C)NC(=O)[C@H](CCC(N)=O)NC(=O)[C@@H](NC(=O)[C@H](CCC(=O)O)NC(=O)[C@H](CO)NC(=O)[C@@H](NC(=O)[C@@H](N)CO)C(C)C)[C@@H](C)CC)C(C)C)C(C)C)C(=O)O)C2=O)C/C1=C/C=C1\CCC[C@]2(C)[C@@H]([C@H](C)CCCC(C)(C)O)CC[C@@H]12 (stereo partly drawn) |  |  | male cynomolgus monkey, plasma | subcutaneous, 0.007 mg/kg, single dose |  | MRT | 29.5 h
Cc1ccnc(-c2cc(C(=O)NCCCCCC(=O)N[C@@H](CCCNC(=N)N)C(=O)N[C@@H](CCCNC(=N)N)C(=O)N[C@@H](Cc3c[nH]c4ccccc34)C(=O)N[C@@H](Cc3c[nH]c4ccccc34)C(=O)N[C@@H](CCCNC(=N)N)C(=O)N[C@@H](Cc3c[nH]c4ccccc34)C(=O)N[C@@H](Cc3c[nH]c4ccccc34)C(=O)N[C@@H](CCCNC(=N)N)C(=O)N[C@@H](CCCNC(=N)N)C(N)=O)ccn2)c1 (stereo in doubt) |  | RNO/histidine method | PBS | with: irradiation 365 nm | reference: phenalenone | singlet oxygen yield | 7%
N=C(N)NCCC[C@@H]1NC(=O)[C@H](CCCCNC(=O)CN2CCN(CC(=O)O)CCN(CC(=O)O)CCN(CC(=O)O)CC2)NC(=O)[C@@H](Cc2ccccc2)NC(=O)[C@H](CC(=O)O)NC(=O)CNC1=O [indium-111 labelled] |  |  | female BALB/c nude mice, U-87 MG xenograft, blood | intravenous, dose not given, 4 h |  | blood radioactivity | < 0.05 %ID/g
CCCC[C@@H]1NC(=O)[C@@H](CC(C)C)NC(=O)[C@H](CCCCNC(=O)CN2CCN(CC(=O)O)CCN(CC(=O)O)CC2)NC(=O)NNC(=O)[C@H](Cc2c[nH]cn2)NC(=O)[C@@H](Cc2c[nH]c3ccccc23)NC1=O [copper-64 labelled] |  |  | Balb/c mice, kidneys | intravenous, dose not given |  | tissue uptake | 1.56 ± 0.34 %ID/g
Cc1cc(-c2ccc(NC(=O)CC[C@H](NC(=O)CN3CCN(CC(=O)O)CCN(CC(=O)O)CCN(CC(=O)O)CC3)C(=O)NCC(=O)N[C@@H](CC(N)=O)C(=O)N[C@H](C(=O)N[C@H](C(=O)N[C@@H](CCCNC(=N)N)C(=O)N[C@@H](CCC(N)=O)C(=O)O)C(C)C)C(C)C)c(C)c2)ccc1/N=N/c1ccc2c(S(=O)(=O)O)cc(S(=O)(=O)O)c(N)c2c1O [copper-64 labelled] |  |  | nude mice, muscle | intravenous, 2 h |  | tissue uptake | 2.73 ± 0.36 %ID/g
CCCC[C@H](NC(C)=O)C(=O)N[C@@H](CO)C(=O)N[C@H](C(=O)N1CCC[C@H]1C(=O)N[C@]1(C)CCCCCCC=CCCC[C@@](C)(C(=O)N[C@@H](Cc2ccccc2)C(=O)N[C@@H](CCCCN)C(=O)N[C@@H](CCCNC(=N)N)C(=O)N[C@@H](CC(C)C)C(=O)N[C@@H](CCC(N)=O)C(N)=O)NC(=O)[C@H](CCCNC(=N)N)NC(=O)[C@H](CCCC)NC(=O)[C@H](CC(C)C)NC(=O)[C@H](CCCNC(=N)N)NC(=O)[C@H](CCCNC(=N)N)NC(=O)[C@H](CCCNC(=N)N)NC1=O)[C@@H](C)O | proteinase K | LC-MS |  | 25 µM, 492.1 min, pH 7.4 |  | remaining peptide | 46.2%
CNS(=O)(=O)Nc1nccc(Cc2c(C)c3ccc(Oc4ncccc4F)cc3oc2=O)c1F | T3M4 | cell viability |  | 7 days |  | IC50 | 4.96 nM

A few entries again:
Molecule | target or system | test | system | conditions | scale | measurement | value
COC1CN([C@H]2CC[C@H]([C@@]3(C)Oc4c(Cl)cc(C(=O)NCc5c(SC)cc(C)[nH]c5=O)c(C)c4O3)CC2)C1 |  | RNA-seq, measured: BEND7 mouse homolog | mouse, HT-1376 xenograft, whole blood | dose not given | reference: vehicle | log2 fold change | 5.54
N=C(N)NCCC[C@@H]1NC(=O)[C@H](CCCCNC(=S)Nc2ccc(CC3CN(CC(=O)O)CCN(CC(=O)O)CCN(CC(=O)O)CCN3CC(=O)O)cc2)NC(=O)[C@@H](Cc2ccc(O)cc2)NC(=O)[C@H](CC(=O)O)NC(=O)CNC1=O (stereo partly drawn) [actinium-225 labelled] |  |  | mice with U-87 MG tumour, kidney |  |  | effective half-life | 19.9 h
